# Published values from different studies.
# A part holds a random share of what one study measured. Positions count from the first letter of the parent shown.
# Chain of UniProt Q02156 (whole entry, looked up): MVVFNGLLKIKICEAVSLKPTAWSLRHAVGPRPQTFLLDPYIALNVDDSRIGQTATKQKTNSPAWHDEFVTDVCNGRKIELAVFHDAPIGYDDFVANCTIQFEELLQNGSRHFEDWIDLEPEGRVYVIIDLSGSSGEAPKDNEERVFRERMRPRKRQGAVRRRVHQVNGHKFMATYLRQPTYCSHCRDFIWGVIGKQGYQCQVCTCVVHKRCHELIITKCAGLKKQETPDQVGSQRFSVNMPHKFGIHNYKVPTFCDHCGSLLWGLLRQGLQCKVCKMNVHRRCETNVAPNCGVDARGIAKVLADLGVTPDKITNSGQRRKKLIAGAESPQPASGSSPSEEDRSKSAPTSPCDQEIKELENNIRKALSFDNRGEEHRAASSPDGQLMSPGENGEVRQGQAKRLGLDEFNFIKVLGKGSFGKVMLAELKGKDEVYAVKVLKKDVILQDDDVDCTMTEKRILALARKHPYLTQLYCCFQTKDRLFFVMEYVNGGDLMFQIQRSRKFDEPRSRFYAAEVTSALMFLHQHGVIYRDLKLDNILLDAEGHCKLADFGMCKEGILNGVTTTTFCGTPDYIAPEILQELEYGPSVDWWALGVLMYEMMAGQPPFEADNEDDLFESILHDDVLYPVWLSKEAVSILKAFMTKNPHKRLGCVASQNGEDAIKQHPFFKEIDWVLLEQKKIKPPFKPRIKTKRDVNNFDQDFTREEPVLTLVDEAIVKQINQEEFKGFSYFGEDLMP
# Chain of UniProt P23443 (whole entry, looked up): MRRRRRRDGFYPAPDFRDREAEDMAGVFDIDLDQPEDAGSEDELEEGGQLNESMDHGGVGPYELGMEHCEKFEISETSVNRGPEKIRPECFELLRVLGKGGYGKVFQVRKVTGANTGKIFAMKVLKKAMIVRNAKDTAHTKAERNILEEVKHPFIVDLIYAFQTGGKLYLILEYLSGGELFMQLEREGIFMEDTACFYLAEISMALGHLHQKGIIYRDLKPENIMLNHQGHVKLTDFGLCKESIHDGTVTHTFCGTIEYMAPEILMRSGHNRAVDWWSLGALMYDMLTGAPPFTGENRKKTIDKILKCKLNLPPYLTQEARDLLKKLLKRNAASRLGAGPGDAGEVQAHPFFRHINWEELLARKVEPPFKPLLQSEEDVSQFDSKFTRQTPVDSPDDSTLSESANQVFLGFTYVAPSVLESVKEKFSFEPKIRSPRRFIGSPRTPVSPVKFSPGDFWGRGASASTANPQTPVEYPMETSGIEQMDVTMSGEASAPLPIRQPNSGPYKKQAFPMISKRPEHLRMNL
# Chain of UniProt P51813 (whole entry, looked up): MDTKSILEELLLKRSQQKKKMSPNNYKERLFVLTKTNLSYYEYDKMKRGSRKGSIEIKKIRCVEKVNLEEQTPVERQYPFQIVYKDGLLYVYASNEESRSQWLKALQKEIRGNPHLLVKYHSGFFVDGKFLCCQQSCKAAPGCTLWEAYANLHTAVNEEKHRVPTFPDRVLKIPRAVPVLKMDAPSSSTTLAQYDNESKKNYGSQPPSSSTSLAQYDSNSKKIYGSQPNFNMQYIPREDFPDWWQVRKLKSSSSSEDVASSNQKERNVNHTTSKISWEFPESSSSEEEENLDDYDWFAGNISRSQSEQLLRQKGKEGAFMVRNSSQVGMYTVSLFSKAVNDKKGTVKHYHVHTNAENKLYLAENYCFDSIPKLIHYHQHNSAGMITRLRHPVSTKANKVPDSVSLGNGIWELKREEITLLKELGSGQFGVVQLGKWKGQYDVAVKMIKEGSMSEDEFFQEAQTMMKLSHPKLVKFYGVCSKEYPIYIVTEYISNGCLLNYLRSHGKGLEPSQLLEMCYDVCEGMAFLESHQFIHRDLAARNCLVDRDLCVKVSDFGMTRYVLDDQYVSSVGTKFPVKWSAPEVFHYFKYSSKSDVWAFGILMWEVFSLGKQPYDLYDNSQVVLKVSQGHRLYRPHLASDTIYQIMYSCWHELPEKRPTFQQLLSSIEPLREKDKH
# Chain of UniProt Q9UQB9 (whole entry, looked up): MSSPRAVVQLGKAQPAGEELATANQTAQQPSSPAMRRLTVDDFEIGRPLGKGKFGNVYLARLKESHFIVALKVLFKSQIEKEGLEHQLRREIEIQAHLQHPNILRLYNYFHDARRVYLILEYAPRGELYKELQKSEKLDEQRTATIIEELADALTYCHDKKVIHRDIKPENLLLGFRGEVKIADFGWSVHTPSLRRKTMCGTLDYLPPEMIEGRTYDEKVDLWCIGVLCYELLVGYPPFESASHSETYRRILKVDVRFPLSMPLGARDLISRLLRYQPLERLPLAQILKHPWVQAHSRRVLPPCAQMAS
# Chain of UniProt Q13177 (whole entry, looked up): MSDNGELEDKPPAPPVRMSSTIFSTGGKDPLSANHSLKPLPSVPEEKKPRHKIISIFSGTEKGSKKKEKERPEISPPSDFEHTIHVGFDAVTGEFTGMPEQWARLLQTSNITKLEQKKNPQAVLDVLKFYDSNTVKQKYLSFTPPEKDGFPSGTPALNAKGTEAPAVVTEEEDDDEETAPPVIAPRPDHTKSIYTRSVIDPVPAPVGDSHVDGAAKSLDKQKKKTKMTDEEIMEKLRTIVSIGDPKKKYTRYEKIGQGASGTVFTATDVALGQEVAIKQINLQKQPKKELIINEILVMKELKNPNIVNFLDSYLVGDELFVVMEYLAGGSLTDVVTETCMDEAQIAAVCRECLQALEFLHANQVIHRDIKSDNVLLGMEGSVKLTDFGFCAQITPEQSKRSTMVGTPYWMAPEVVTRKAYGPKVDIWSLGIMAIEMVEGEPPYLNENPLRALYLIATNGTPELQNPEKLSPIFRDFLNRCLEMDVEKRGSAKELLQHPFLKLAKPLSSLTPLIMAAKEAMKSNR
# Chain of UniProt Q8NEV4 (whole entry, looked up): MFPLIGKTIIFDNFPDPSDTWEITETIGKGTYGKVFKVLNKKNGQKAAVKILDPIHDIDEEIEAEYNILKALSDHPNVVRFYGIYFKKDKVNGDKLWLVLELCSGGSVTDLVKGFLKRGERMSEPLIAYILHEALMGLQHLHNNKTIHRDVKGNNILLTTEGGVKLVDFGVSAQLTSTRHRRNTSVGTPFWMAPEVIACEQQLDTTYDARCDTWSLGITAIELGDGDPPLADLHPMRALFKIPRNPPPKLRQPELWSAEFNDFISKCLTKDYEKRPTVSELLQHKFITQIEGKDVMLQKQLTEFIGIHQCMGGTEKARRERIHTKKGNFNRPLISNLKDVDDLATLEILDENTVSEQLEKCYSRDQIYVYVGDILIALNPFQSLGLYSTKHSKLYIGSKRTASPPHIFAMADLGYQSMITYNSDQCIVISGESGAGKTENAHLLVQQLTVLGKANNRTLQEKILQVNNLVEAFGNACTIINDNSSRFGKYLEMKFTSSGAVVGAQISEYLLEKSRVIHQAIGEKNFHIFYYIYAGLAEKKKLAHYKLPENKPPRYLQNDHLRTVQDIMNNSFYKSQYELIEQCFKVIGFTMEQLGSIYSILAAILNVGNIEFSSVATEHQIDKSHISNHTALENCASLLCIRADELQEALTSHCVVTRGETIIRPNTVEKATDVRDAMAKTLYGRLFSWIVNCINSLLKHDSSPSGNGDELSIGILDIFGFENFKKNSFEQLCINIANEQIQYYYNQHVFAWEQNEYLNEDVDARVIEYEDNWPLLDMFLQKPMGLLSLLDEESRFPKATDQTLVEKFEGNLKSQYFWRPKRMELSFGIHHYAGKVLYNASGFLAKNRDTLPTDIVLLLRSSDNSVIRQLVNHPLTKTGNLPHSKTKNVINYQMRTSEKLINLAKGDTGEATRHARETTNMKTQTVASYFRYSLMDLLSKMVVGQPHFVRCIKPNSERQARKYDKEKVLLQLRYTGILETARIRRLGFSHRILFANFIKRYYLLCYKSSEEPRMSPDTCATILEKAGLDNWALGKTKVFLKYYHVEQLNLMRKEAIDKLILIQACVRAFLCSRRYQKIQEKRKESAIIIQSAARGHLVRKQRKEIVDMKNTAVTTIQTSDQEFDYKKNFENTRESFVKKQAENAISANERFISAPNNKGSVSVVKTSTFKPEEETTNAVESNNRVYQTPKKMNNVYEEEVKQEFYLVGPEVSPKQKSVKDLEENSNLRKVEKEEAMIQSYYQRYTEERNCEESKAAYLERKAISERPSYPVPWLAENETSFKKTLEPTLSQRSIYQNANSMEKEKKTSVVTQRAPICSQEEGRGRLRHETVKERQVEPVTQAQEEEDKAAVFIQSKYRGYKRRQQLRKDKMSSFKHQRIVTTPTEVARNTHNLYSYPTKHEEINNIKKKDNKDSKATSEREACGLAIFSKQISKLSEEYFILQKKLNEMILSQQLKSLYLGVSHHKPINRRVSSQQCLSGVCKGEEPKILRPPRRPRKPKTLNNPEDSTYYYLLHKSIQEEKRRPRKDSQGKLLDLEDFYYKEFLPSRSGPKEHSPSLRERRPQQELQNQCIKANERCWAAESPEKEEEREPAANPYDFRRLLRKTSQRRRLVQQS
# Chain of UniProt O60285 (whole entry, looked up): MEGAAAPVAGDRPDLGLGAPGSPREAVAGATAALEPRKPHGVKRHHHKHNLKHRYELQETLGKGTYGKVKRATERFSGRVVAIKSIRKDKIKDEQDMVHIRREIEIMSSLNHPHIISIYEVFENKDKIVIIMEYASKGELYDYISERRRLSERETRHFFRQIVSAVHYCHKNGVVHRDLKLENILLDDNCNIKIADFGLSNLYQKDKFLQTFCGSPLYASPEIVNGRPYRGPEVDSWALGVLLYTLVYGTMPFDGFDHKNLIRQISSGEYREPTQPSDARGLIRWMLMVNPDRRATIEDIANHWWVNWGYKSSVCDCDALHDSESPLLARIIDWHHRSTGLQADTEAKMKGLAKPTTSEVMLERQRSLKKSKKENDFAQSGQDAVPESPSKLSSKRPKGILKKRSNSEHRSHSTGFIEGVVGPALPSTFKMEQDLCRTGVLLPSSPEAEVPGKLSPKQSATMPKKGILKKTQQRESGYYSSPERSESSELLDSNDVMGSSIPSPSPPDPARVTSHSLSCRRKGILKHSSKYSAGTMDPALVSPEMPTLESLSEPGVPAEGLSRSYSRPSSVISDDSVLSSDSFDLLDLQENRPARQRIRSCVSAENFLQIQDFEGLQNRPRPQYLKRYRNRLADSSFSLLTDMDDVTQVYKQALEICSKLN

# Study 1
# Compound: Cn1cncc1[C@@](O)(COc1ccc(C#N)cc1-c1ccc(OC(F)(F)F)cc1)c1ccc(C#N)cc1
# Method: competition with immobilised ligand
# Tested at: 1 µM
target,test,remaining binding
"EGFR (Homo sapiens, UniProt P00533, del747-750/T751S)",cell-free assay,60%
"Myosin-IIIa (MYO3A, Homo sapiens, UniProt Q8NEV4)",binding,98%
"EGFR (Homo sapiens, UniProt P00533, L858R/T790M)",cell-free assay,96%

# Study 2
# SMILES: O=C1NC(=O)c2c1c1c3ccccc3n3c1c1c2c2ccccc2n1[C@H]1CC[C@@H]3O1
# Effect on: enzyme activity
# Mode: inhibitor
# Tested at: 0.5 µM
# Reference: control
target,remaining activity [%]
"RPS6KB1 (Homo sapiens, UniProt P23443)",2.38
"BMX (Homo sapiens, UniProt P51813)",27.5
"PRKCE (Homo sapiens, UniProt Q02156)",28.4
"Aurora kinase C (AURKC, Homo sapiens, UniProt Q9UQB9)",36.5
"CSF1R (Homo sapiens, UniProt P07333)",29.3
"PAK2 (Homo sapiens, UniProt Q13177)",43.9
"NUAK1 (Homo sapiens, UniProt O60285)",2.09

# Study 3
# Change: D75H
# Target: ABI1, truncated, D143A, DHFR fusion (Arabidopsis thaliana)
# Method: DHFR PCA, deep sequencing
# Matrix: yeast
# Notes: methotrexate growth selection, single substitutions
# Reference: wild-type fitted maximum
# Reading: higher = stronger binding
# Starting sequence: PYL1, truncated, DHFR fusion (Arabidopsis thaliana); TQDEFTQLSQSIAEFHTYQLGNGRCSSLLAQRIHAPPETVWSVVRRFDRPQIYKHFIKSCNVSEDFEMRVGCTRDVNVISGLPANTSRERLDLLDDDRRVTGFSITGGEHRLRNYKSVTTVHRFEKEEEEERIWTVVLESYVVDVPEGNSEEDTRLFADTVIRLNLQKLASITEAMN
conditions,relative binding score [%]
with: (+)-ABA 58 µM,86.1
with: (+)-ABA 0 µM,20.5
with: (+)-ABA 0.11 µM,36.8
with: (+)-ABA 0.0091 µM,26.8
with: (+)-ABA 0.39 µM,44.7
with: (+)-ABA 200 µM,101

# Study 4
# Target: CCNF, cyclin fold, Cln2 fusion (human)
# Method: yeast growth competition, sequencing
# Matrix: yeast
# Notes: strong parent motif
# Reference: not given
# Reading: higher = stronger binding
# Starting sequence: viral docking peptide; YKVKRRLVFGADD
Change,normalised enrichment score
YKVKRRLVEGADD [F9E],1.24
YKVNRRLVFGADD [K4N],8.38
YKVKRRLVFRADD [G10R],7.95
YKVKRRSVFGADD [L7S],0.792
YKVKRRLVFGWDD [A11W],9.35
YKVKRRLVFIADD [G10I],7.86
YKVKRFLVFGADD [R6F],7.7
YKVKRRLVYGADD [F9Y],8.52
YKVKRRLVLGADD [F9L],8.42
YKVKRRLVFGGDD [A11G],8.59
YKVKGRLVFGADD [R5G],1.77
YKVKARAVFGADD [R5A L7A],0.718

# For quick reference, copied from above (study 1):
target,test,remaining binding
"EGFR (Homo sapiens, UniProt P00533, del747-750/T751S)",cell-free assay,60%
"EGFR (Homo sapiens, UniProt P00533, L858R/T790M)",cell-free assay,96%
"Myosin-IIIa (MYO3A, Homo sapiens, UniProt Q8NEV4)",binding,98%
